# Measured values gathered from unrelated publications.
# Each numbered part is a random draw from the data of one study; scales do not carry over between parts. Changes are numbered by the printed parent chain.

# Set 1 — method: DHFR PCA, deep sequencing; medium: yeast; with: (+)-ABA 58 µM; relative to: wild-type fitted maximum; reading: higher = stronger binding
# Target: ABI1, truncated, D143A, DHFR fusion (Arabidopsis thaliana)
# Notes: methotrexate growth selection, single substitutions
# Starting sequence: PYL1, truncated, DHFR fusion (Arabidopsis thaliana); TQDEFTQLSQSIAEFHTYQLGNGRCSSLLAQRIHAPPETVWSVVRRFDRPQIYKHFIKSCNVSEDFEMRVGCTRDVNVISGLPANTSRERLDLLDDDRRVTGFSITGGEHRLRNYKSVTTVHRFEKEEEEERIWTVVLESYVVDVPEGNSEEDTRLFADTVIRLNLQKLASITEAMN
Variant,relative binding score [%]
E130T,94.7
Q19I,79.4
Q10Y,69.9
F66A,78.9
E89N,-24.4
V118D,14.4
N165Y,18.5
D95N,74.4
G107F,9.26
Y18E,65.1
I33H,10.8
V118G,-7.98
Q31V,50.2
I12G,9.51
E128V,83.3
D75T,91
F56H,27.8
T17G,58.3
F157H,-2.34
P36N,81.8
S87A,64.1
R69D,78.6
K58L,64.2
R45K,75.5
Y115A,1.53

# Set 2 — method: protein-binding microarray; form: double-stranded DNA, one strand shown; medium: in vitro; tested at: 2540 nM top; notes: 60-bp whole probe; with: salmon DNA 0.4 mg/ml; relative to: random background probes; reading: higher = stronger binding; shared flanks, not repeated: GCCTAGCAC … GTCTTGATTCGCTTGACGCTGCTG
# Target: Interferon regulatory factor 3, full length, phosphomimetic (IRF3, Homo sapiens, UniProt Q14653, residues 1-427, S386D/S396D/S398D/S402D/T404D/S405D)
# UniProt Q14653, sequence (whole entry, unmodified, looked up): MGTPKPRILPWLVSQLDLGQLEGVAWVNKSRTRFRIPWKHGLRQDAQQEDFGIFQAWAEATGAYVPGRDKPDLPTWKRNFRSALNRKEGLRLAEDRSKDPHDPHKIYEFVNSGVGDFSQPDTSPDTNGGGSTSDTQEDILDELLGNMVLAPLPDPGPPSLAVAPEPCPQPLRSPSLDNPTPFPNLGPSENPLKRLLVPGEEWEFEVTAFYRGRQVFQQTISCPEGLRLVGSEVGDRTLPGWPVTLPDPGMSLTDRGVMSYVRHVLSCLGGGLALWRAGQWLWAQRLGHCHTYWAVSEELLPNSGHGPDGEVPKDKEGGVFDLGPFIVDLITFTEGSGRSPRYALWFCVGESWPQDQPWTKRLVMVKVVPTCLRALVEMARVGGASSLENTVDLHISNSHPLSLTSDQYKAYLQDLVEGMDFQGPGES
Sequence,fitted relative affinity
GACGGTTCCCTTTTCCTGTCGTGCTAG,6.68 z-score
TCAGCTGTGGGTTTGAGACTGTGCTAG,-1.03 z-score
TACGGACTGGACTATCGGGACGTGCTA,-0.464 z-score
GACGGTTTCCCTTCCCTGACGTGCTAG,8.5 z-score
GACGGATTGCTTTTCCTGACGTGCTAG,0.953 z-score
TTAGGACTGGACTTTCCGTTAGTGCTA,0.588 z-score
TCACTTTCTGTTTTCTCACTGTGCTAG,5.98 z-score
TGAACTTCGGCCTCTAGGTTTGTGCTA,-0.678 z-score
ATTTTTTAGCTTCTCAATTAGTGCTAG,1.06 z-score
GACGGTTTCTACTTTCGGGACGTGCTA,3.2 z-score
TTAGGTTTCGACACTGGCTTAGTGCTA,2.43 z-score
TCATCTCTAACCTCTCTAACTGTGCTA,0.843 z-score
AACGGTCTCCTACTGCTGACGTGCTAG,1.1 z-score
ATAGGTTTCCTTATCCTTTAGTGCTAG,8.19 z-score
GACGAACTGGGGTATCGAGAGGTGCTA,-0.472 z-score
TCAATTTCCACTTTCTTACTGTGCTAG,3.31 z-score
CACGATTTCGGGACTGGAGACGTGCTA,1.38 z-score

# Set 3 — target: CCNB3, cyclin fold, Cln2 fusion (human); method: yeast growth competition, sequencing; medium: yeast; notes: weak parent motif; relative to: not given; reading: higher = stronger binding
# Starting sequence: PKMYT1 docking peptide (human); SFEPRNLLSLFED; partner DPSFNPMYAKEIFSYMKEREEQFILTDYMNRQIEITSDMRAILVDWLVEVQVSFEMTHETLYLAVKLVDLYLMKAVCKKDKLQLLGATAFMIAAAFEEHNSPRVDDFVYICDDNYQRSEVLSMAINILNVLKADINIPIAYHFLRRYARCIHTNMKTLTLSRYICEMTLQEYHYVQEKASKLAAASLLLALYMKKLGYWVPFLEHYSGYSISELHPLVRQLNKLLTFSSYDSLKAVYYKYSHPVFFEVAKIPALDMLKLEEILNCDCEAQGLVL
Variant,normalised enrichment score
SFEPRNLLSLFWD [E12W],0.545
SFEIRNLLSLFED [P4I],0.043
SFEPRNLLCLFED [S9C],0.51
IFEPRNLLSLFED [S1I],0.24
LFEPRNLLSLFED [S1L],0.44
SFEPINLLSLFED [R5I],0.7
SFEPRNLLSLHED [F11H],0.427
SFEPRNLLSLFQD [E12Q],0.412
SFEPRNLLELFED [S9E],0.568
SFECRNLLSLFED [P4C],0.505
SFEPDNLLSLFED [R5D],0.438
SFEPRNLLMLFED [S9M],0.406
SVEPRNLLSLFED [F2V],-0.0057
SFEPRGLLSLFED [N6G],0.516
SFEPRNLSSLFED [L8S],0.323
SFEPRNLLSVFED [L10V],0.0102
SFQPRNLLSLFED [E3Q],0.29
SFEERNLLSLFED [P4E],0.363
SFEPRNLLSLTED [F11T],0.328
FFEPRNLLSLFED [S1F],0.567
SFEPRNGLSLFED [L7G],0.384
SFEPRNLLSLLED [F11L],0.126
SFEPRNLLSLEED [F11E],0.376
SFEPRNLLSLFRD [E12R],0.474
CFEPRNLLSLFED [S1C],0.572

# Set 4 — target: UBE2I UBC core domain (UniProt P63279); method: yeast two-hybrid; medium: yeast; notes: mostly zero background; relative to: not given; reading: higher = stronger interaction
# B1: NHLRC1 RING domain (UniProt Q6VVB1); chain MREAEISLLECKVCFEKFGHRQQRRPRNLSCGHVVCLACVAALAHPRTLALECPFCRRACRGCDTSD
# B2: MARCHF2 RING domain (UniProt Q9P0N8); chain RLLSTVIRALDTPSDGPFCRICHEGANGECLLSPCGCTGTLGAVHKSCLEKWLSSSNTSYCELCHTEFAVEKRPRPLTEWL
# B3: CBLL1 RING domain (UniProt Q75N03); chain GEKDDTPVHFCDKCGLPIKIYGRMIPCKHVFCYDCAILHEKKGDKMCPGCSDPVQRIEQCT
# B4: RNF17 RING domain (UniProt Q9BXT8); chain SQPWGAAEIQCTRCGRRVSRSSGHHCELQCGHAFCELCLLMTEECTTIICPDCEVATAVNTRQR
# B5: RNF130 RING domain (UniProt Q86XS8); chain DKETDPDFDHCAVCIESYKQNDVVRILPCKHVFHKSCVDPWLSEHCTCPMCKLNILKALGIV
# B6: TRIM47 RING domain (UniProt Q96LD4); chain MDGSGPFSCPICLEPLREPVTLPCGHNFCLACLGALWPHRGASGAGGPGGAARCPLCQEPFPDGLQLR
# B7: SHPRH RING domain (UniProt Q149N8); chain KTSGGVNPEPCPICARQLGKQWAVLTCGHCFCNECISIIIEQYSVGSHRSSIKCAICRQTTSHKEISY
# B8: ARIH1 RING domain (UniProt Q9Y4X5); chain NTRSSAQDMPCQICYLNYPNSYFTGLECGHKFCMQCWSEYLTTKIMEEGMGQTISCPAHGCDILVDDNTVM
# B9: TRIM34 RING domain (UniProt Q9BYJ4); chain ILLNVQEEVTCPICLELLTEPLSLDCGHSLCRACITVSNKEAVTSMGGKSSCPVCGISYSFEHLQA
# B10: RNF32 RING domain (UniProt Q9H0A6); chain VQALRRETHECSICLAPLSAAGGQRVGAGRRSREMALLSCSHVFHHACLLALEEFSVGDRPPFHACPLCRSCYQKKILEC
# B11: UBE4B RING domain (UniProt O95155); chain KNARAEIDYSDAPDEFRDPLMDTLMTDPVRLPSGTIMDRSIILRHLLNSPTDPFNRQTLTESMLEPVPELKEQIQAWMREKQNSDH
Molecule,lacZ reporter activity
KITELNPHLMCALCGGYFIDATTIVECLHSFCKTCIVRYLETNKYCPMCDVQVHKTRPLL (PCGF2 RING domain (UniProt P35227)),0
B1 (NHLRC1 RING domain),0
B2 (MARCHF2 RING domain),0
B3 (CBLL1 RING domain),0
EIKDYKARLTCPCCNMRKKDAVLTKCFHVFCFECVKTRYDTRQRKCPKCNAAFGANDFHR (RNF20 RING domain (UniProt Q5VTR2)),0
B4 (RNF17 RING domain),0
B5 (RNF130 RING domain),0
B6 (TRIM47 RING domain),0
FLSKVEETFQCICCQELVFRPITTVCQHNVCKDCLDRSFRAQVFSCPACRYDLGRSYAMQ (UHRF1 RING domain (UniProt Q96T88)),0
B7 (SHPRH RING domain),0
B8 (ARIH1 RING domain),0
B9 (TRIM34 RING domain),0
AAQLLEEKLTCAICLGLYQDPVTLPCGHNFCGACIRDWWDRCGKACPECREPFPDGAELR (TRIM65 RING domain (UniProt Q6PJ69)),0
B10 (RNF32 RING domain),0
B11 (UBE4B RING domain),0

# Set 5 — target: CREB3L2, bZIP domain (human); method: DHFR protein complementation; medium: yeast; relative to: wild-type JUN-FOS pair; reading: higher = stronger binding
# Notes: single substitutions, most at no-binding floor
# Starting sequence: JUN, bZIP domain (human); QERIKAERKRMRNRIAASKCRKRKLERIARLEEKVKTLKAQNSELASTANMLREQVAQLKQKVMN; partner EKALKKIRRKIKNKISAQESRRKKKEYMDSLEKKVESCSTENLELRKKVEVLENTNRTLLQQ
Variant,binding fitness [natural log]
L38D,-1.58
Q41G,-1.5
L31H,-1.38
L45S,-1.57
K36H,-1.55
T37A,-1.36
R30G,-1.42
T48M,-1.61
Q55R,-1.41
E32K,-1.44
E44C,-1.53
S43I,-1.34
L52C,-1.56
A49T,-1.49
S43H,-1.49
A49P,-1.48
L45F,-1.55
A49Y,-1.14
A40P,-1.55
L52V,-1.46
Q55G,-1.48

# For quick reference, copied from above (set 3):
Variant,normalised enrichment score
SFEPRNGLSLFED [L7G],0.384
LFEPRNLLSLFED [S1L],0.44
SFEPRNLLSLEED [F11E],0.376
CFEPRNLLSLFED [S1C],0.572
SFEIRNLLSLFED [P4I],0.043
SFEPDNLLSLFED [R5D],0.438
SFEPRNLLSVFED [L10V],0.0102
SFEPINLLSLFED [R5I],0.7
SFEPRNLLSLLED [F11L],0.126
SFECRNLLSLFED [P4C],0.505
SFEPRNLLSLFQD [E12Q],0.412
